Assay results of several laboratories.
Numbered parts are unrelated; each lists some results of a single study. Positions count from the first letter of the parent shown.

Set 1
Target: CEBPA, bZIP domain (human)
Method: DHFR protein complementation
Matrix: yeast
Setting: single substitutions, most at no-binding floor
Baseline: wild-type JUN-FOS pair
Direction: higher = stronger binding
Starting sequence: JUN, bZIP domain (human); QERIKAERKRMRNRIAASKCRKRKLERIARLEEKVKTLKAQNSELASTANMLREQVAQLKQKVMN; partner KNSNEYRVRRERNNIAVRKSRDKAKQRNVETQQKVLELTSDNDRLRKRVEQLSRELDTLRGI
Substitution | binding fitness
T48A | -1.46 natural log
A49V | -1.36 natural log
A29P | -1.42 natural log
T48V | -1.41 natural log
A57Q | -1.41 natural log
L59W | -1.5 natural log
L45H | -1.57 natural log
E54L | -1.49 natural log
E44V | -1.47 natural log
I28M | -1.35 natural log
E32C | -1.37 natural log

Set 2
Target: ABI1, truncated, D143A, DHFR fusion (Arabidopsis thaliana)
Method: DHFR PCA, deep sequencing
Matrix: yeast
Setting: methotrexate growth selection, single substitutions
With: (+)-ABA 0 µM
Baseline: wild-type fitted maximum
Direction: higher = stronger binding
Starting sequence: PYL1, truncated, DHFR fusion (Arabidopsis thaliana); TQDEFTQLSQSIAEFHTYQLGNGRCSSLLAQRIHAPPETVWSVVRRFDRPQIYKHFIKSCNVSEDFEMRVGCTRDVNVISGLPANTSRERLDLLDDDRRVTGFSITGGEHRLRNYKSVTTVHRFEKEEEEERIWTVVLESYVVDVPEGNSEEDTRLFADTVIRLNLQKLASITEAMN
Substitution | relative binding score [%]
D95S | 6.34
K54C | -3.01
T86M | 19
P37M | 1.71
R111N | 5.72
A30R | 3.51
N77H | 51.6
T73M | 34.7
T173A | 24.4

Set 3
Target: CCNB1, cyclin fold, Cln2 fusion (human)
Method: yeast growth competition, sequencing
Matrix: yeast
Setting: strong parent motif
Baseline: not given
Direction: higher = stronger binding
Starting sequence: INSM1 docking peptide (human); PKAIRKLHFEDEV; partner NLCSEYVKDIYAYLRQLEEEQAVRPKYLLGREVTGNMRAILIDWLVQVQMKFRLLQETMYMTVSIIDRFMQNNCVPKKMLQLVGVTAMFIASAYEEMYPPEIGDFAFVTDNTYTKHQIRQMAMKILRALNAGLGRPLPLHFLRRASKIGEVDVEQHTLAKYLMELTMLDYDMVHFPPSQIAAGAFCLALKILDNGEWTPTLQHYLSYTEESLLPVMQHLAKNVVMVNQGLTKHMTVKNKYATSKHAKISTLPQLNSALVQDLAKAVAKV
Substitution | normalised enrichment score
PKAIRKLWFEDEV [H8W] | 1.61
PKAIRKLHFEGEV [D11G] | 1.56
PKAIRKLHFKDEV [E10K] | 0.613
PKAIRKLAFEDEV [H8A] | 1.14
PKAIRWLHFEDEV [K6W] | 0.221
PKAIRKLHFEDKV [E12K] | 1.25
PKAIRKLHFEREV [D11R] | 0.687
PKAIRCLHFEDEV [K6C] | 1.81
PKAIRKLHFEQEV [D11Q] | 1.27
PKAYRKLHFEDEV [I4Y] | 0.357
PKAIRKLHFGDEV [E10G] | 2.06
PLAIRKLHFEDEV [K2L] | 2.74
PGAIRKLHFEDEV [K2G] | 3.78
PKAIRKLHCEDEV [F9C] | -0.112
PKAIRKLHSEDEV [F9S] | 0.0412
PKARRKLHFEDEV [I4R] | 2.27
PKAIRKKHFEDEV [L7K] | 0.173
PKAIRKLEFEDEV [H8E] | 3.38
PKAHRKLHFEDEV [I4H] | 0.539
PKAIRKLRFEDEV [H8R] | 0.88
PWAIRKLHFEDEV [K2W] | 2.9
PKAIRKLHFEAEV [D11A] | 1.61
PKAIIKLHFEDEV [R5I] | 0.709
PTAIRKLHFEDEV [K2T] | 3.79
PKAIRKLHFHDEV [E10H] | 1.28

Set 4
Target: Histone acetyltransferase KAT6A, winged helix 1, GST fusion (KAT6A, Homo sapiens, UniProt Q92794, residues 1-85)
Method: protein binding microarray
Molecule type: double-stranded DNA, one strand shown
Matrix: in vitro
Tested at: not given
Setting: 8-mer, flanks averaged, mean of 2 arrays, mostly near background
Baseline: not given
Direction: higher = stronger binding
Target sequence (chain): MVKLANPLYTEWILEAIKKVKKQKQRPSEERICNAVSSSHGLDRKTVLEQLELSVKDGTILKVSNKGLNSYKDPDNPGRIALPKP
Strand | E-score
GCGCTAGC | 0.255
TCGAACAA | -0.137
AGAGCGGA | 0.151
CCTTGCCC | -0.0599
GCACTAAA | 0.0463
AAGTATAA | 0.0223
GGCGTACC | 0.192
AGCAGCAC | -0.237
AGTCAGGA | 0.0117
ACCAGTGG | -0.177
GCTTCTAA | -0.233
ATCATCCA | -0.27
CGAGGACA | 0.075
AGTCCAGC | -0.146
AGGTGACC | -0.149

Some of these lines once more (set 1):
Substitution | binding fitness
L45H | -1.57 natural log
A57Q | -1.41 natural log
E44V | -1.47 natural log
E54L | -1.49 natural log
